Results from different studies.
Protocols differ between the studies behind these lines. Numbers after ± are the reported error.
FGFR3: Fibroblast growth factor receptor 3 (FGFR3, Homo sapiens, UniProt P22607)
Chain of UniProt P22607 (whole entry, looked up): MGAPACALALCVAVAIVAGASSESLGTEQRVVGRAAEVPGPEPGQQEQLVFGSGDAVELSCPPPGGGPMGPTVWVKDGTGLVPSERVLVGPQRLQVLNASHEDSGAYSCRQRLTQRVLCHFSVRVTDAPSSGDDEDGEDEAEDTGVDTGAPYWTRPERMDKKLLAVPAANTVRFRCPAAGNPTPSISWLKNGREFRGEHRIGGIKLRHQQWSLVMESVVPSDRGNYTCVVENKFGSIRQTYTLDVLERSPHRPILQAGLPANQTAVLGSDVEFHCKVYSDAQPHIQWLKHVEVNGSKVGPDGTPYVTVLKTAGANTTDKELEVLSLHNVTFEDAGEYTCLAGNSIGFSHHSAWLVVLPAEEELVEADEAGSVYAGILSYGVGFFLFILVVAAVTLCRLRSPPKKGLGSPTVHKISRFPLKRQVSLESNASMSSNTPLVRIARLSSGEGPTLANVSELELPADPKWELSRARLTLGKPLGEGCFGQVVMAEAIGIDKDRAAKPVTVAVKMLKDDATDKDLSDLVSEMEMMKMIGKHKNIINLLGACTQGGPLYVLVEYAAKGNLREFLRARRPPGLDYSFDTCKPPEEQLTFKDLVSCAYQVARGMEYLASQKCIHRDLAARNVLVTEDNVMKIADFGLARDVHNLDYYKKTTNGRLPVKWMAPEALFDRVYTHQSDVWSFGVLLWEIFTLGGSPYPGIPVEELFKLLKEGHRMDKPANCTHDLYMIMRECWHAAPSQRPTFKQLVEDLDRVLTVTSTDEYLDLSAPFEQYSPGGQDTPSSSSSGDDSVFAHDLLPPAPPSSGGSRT
FGFR3 extracellular domain: Fibroblast growth factor receptor 3, extracellular domain (FGFR3, Homo sapiens, UniProt P22607)

SMILES	target	test	setting	how to read	quantity	result
C=CC(=O)N1CCC(COCC(=O)N2CCN(c3nc(-c4cnc(N)nc4C(F)F)nc(N4CCOC[C@@H]4C)n3)CC2)CC1	FGFR3	KINOMEscan	1 µM		remaining binding	100%
COc1ccc(F)cc1C(=O)NCc1ccc(-c2nn([C@@H](C)C(F)(F)F)c(N)c2C(N)=O)cc1	FGFR3	kinase activity, inhibitor, HotSpot radiometric	1000 nM, with: ATP at Km		remaining activity	97.6 ± 0.8%
c1cnc2ccc(Nc3nc(NC4CC4)c4nc[nH]c4n3)cc2c1	FGFR3	kinase activity, inhibitor, SelectScreen kinase profiling	1 µM	baseline: control	remaining activity	61%
CC[C@H](C)[C@H](NC(=O)[C@@H]1CSCc2cc3cc(c2)CSC[C@H](NC(=O)[C@H](C(C)C)NC(=O)CNC(=O)[C@H](CCCCN)NC(=O)[C@@H](NC(=O)[C@H](CCSC)NC(C)=O)CSC3)C(=O)N2CCC[C@H]2C(=O)N[C@@H](Cc2ccccc2)C(=O)N[C@@H](CO)C(=O)N[C@@H](C(C)C)C(=O)N1)C(=O)N[C@@H](C)C(=O)N[C@@H](CCCNC(=N)N)C(=O)N[C@@H](CC(C)C)C(=O)NCC(=O)N[C@@H](CO)C(=O)NCC(=O)N[C@@H](CO)C(=O)NCC(=O)N[C@@H](CO)C(=O)N[C@@H](CC(=O)O)C(=O)N[C@@H](Cc1ccc(O)cc1)C(=O)N[C@@H](CCCCN)C(=O)N[C@@H](CC(=O)O)C(=O)N[C@@H](CC(=O)O)C(=O)N[C@@H](CC(=O)O)C(=O)N[C@@H](CC(=O)O)C(=O)N[C@@H](CCCCN)C(=O)N[C@@H](CCCCN=[N+]=[N-])C(N)=O	FGFR3 extracellular domain	binding, biolayer interferometry	concentration not given		BLI response	0.0328 RU
CC#CC(=O)N1CCC[C@H]1c1nc(-c2ccc(C(=O)Nc3ccccn3)cc2)c2c(N)nccn12	FGFR3	kinase activity, inhibitor, HotSpot radiometric	100 nM, with: ATP 10 µM		remaining activity	93 ± 0.3%
[2H]c1cc(C)c(NC(=O)c2cnc(Nc3cc(N4CCCCC4)nc(C)n3)s2)c(Cl)c1	FGFR3		0.01 µM		inhibition	< 30%
Cc1cc(Nc2cc(N3CCN(C)CC3)nc(Sc3ccc(NC(=O)C4CC4)cc3)n2)[nH]n1	FGFR3	kinase activity, KinaseProfiler	0.03 µM, species human	baseline: control	remaining activity	92%
COc1cc(F)ccc1-c1ncnc(Nc2cccc(C[S@](C)(=N)=O)c2)n1	FGFR3	kinase activity	10 µM, with: 10 µM ATP		remaining activity	83%
CSCC[C@H](NC(C)=O)C(=O)N[C@@H](Cc1ccccc1)C(=O)N[C@H](C(=O)NCC(=O)N[C@@H](Cc1c[nH]cn1)C(=O)N[C@H]1CSCc2cc3cc(c2)CSC[C@@H](C(=O)N[C@H](C(=O)N[C@@H](CCCNC(=N)N)C(=O)N[C@@H](Cc2ccc(O)cc2)C(=O)N[C@@H](Cc2ccc(O)cc2)C(=O)NCC(=O)N[C@@H](CO)C(=O)NCC(=O)N[C@@H](CO)C(=O)NCC(=O)N[C@@H](CO)C(=O)N[C@@H](CC(=O)O)C(=O)N[C@@H](Cc2ccc(O)cc2)C(=O)N[C@@H](CCCCN)C(=O)N[C@@H](CC(=O)O)C(=O)N[C@@H](CC(=O)O)C(=O)N[C@@H](CC(=O)O)C(=O)N[C@@H](CC(=O)O)C(=O)N[C@@H](CCCCN)C(=O)N[C@@H](CCCCN=[N+]=[N-])C(N)=O)C(C)C)NC(=O)[C@H](CSC3)NC(=O)CNC(=O)[C@H](CC(C)C)NC(=O)[C@H]([C@@H](C)O)NC1=O)[C@@H](C)O	FGFR3 extracellular domain	binding, biolayer interferometry	concentration not given		BLI response	0.0633 RU
